Measured values gathered from unrelated publications.
Lines come from different studies, so protocols differ. ± gives the spread as reported.
Proteasome subunit alpha type-2/Proteasome subunit alpha type-6 20S proteasome: Proteasome subunit alpha type-2/Proteasome subunit alpha type-6, 20S proteasome (Homo sapiens, UniProt P25787+P60900)
PPO3: PPO3 (Agaricus bisporus, UniProt C7FF04)
T1: dsDNA, mismatch bulge, abasic at position 8; chain GATGATANAAGACAT; chain ATGTCTTGTATCATC
T2: DNA hairpin, hairpin, TTTT loop; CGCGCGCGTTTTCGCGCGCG

The specific activity of CCCCCCCC(=O)Nc1ccc(C)nc1OC is reported as 2.8 pmol/min/µg (Carboxylesterase 3 (CES3, Homo sapiens, UniProt Q6UWW8); substrate; 50 µM, pH 8, 37 °C, enzyme purity 3%).
Under “apparent association constant”, NCCCC[C@H](NC(=O)[C@H](CCCCN)NC(=O)[C@@H](N)CCCCN)C(=O)NCC(=O)NCC(=O)NCCCCCCCCNC(=O)COc1ccc(-c2ccccn2)cc1 is recorded as 1e+06 ± 100000 M⁻¹ (Calmodulin-1 (CALM1, Homo sapiens, UniProt P0DP23); binding, quartz crystal microbalance; 25 °C, no Ca2+).
The IC50 ratio of CCCC[C@H](NC(=O)CNC(=O)[C@@H]1CCCN1C(=O)CNC(=O)[C@@H]1CCCN1C(=O)CNC(=O)[C@@H]1CCCN1C(=O)CNC(=O)[C@@H]1CCCN1C(=O)CNC(=O)[C@@H]1CCCN1C(=O)CNC(=O)[C@@H]1CCCN1C(=O)CNC(=O)[C@@H]1CCCN1C(=O)CNC(=O)[C@@H]1CCCN1C(=O)CNC(=O)[C@@H]1CCCN1C(=O)CNC(=O)[C@@H]1CCCN1C(=O)CNC(=O)[C@@H]1CCCN1C(=O)CNC(=O)[C@@H]1CCCN1C(=O)[C@H](Cc1c[nH]c2ccccc12)NC(=O)[C@H](CCCNC(=N)N)NC(=O)[C@@H](Cc1ccccc1)NC(=O)[C@H](Cc1c[nH]cn1)NC(=O)[C@H](CCC(=O)O)NC(=O)[C@H](CCCC)NC(=O)[C@H](CO)NC(C)=O)C(=O)NCC(=O)N[C@@H](Cc1c[nH]c2ccccc12)C(=O)N[C@@H](CCCC)C(=O)N[C@@H](CC(=O)O)C(=O)N[C@@H](Cc1ccccc1)C(N)=O is reported as 7 fold (CCKBR/MC4R (Homo sapiens, UniProt P32239+P32245); bivalent binding; cells expressing CCK2R and MC4R; with: Eu-DTPA-CCK-8; relative to: single- over dual-expressing cells).
O=c1ccn([C@@H]2C[C@@H](O)[C@H](COP(=O)(O)O)O2)c(=O)[nH]1 gave a relative Vmax of 0.28 ± 0.02% (UMP-CMP kinase (Homo sapiens, UniProt P30085); enzyme activity, substrate, coupled spectrophotometric; relative to: D-CMP).
Under “maximum fold increase”, O=C(CCn1c2ccccc2c2ccncc21)N(c1ccc(F)cc1)c1ccc(F)cc1 is recorded as 12 ± 2.6 (Proteasome subunit alpha type-2/Proteasome subunit alpha type-6 20S proteasome; proteolysis, activator, fluorogenic peptide; purified 20S proteasome; up to 30 µM, with: Suc-LLVY-AMC, Z-LLE-AMC, Boc-LRR-AMC; relative to: vehicle).
With CN(C)c1ccc2cc(C(=O)COn3nnc4ccccc43)c(=O)oc2c1 the labeling half-time was 7 min (pyp (Halorhodospira halophila, UniProt P16113); covalent fluorescent labeling, in-gel fluorescence).
With CN(C)CCCNc1nc2cc(N)ccc2nc1NCc1ccccc1 the Kd was 1790 nM (T1, dsDNA, mismatch bulge, abasic at position 8; fluorescence quenching titration; pH 7.0, 25 °C).
O=C(CSc1nc2ccccc2s1)Nc1nonc1[N+](=O)[O-]: “onset of degradation” ~2 h (Protein max (MAX, Homo sapiens, UniProt P61244); degrader, Western blot; Ramos).
The cooperativity α of Cc1ncsc1-c1ccc(CNC(=O)[C@@H]2C[C@@H](O)CN2C(=O)[C@@H](NC(=O)COCC(C)(COCCOCCOCCNC(=O)C[C@@H]2N=C(c3ccc(Cl)cc3)c3c(sc(C)c3C)-n3c(C)nnc32)COCCOCCOCCNC(=O)C[C@@H]2N=C(c3ccc(Cl)cc3)c3c(sc(C)c3C)-n3c(C)nnc32)C(C)(C)C)cc1 is reported as 3.5 (Bromodomain-containing protein 4, BD2 (BRD4, Homo sapiens, UniProt O60885); AlphaLISA; with: VCB).
COc1cncc(-c2cc(F)cc(CNC(=O)c3cc(N4CC[C@@](C#N)(C5CC5)C4=O)cc(C)n3)c2)c1 has a melting temperature of 78.4 °C (Proline--tRNA ligase (Plasmodium falciparum, UniProt Q8I5R7); thermal shift; with: L-proline 2 mM).
Under “turnover rate increase”, O=C(O)Cc1ccc(O)cc1 is recorded as ~12 fold (p-hydroxyphenylacetate 3-hydroxylase, reductase component (C1-hpah, Acinetobacter baumannii, UniProt Q6Q271); NADH oxidation, activator; 100 µM, pH 7, with: 50 µM NADH).
COc1cc(F)c(C(C)C)cc1C1=C(CN2C(=O)O[C@H](c3cc(C(F)(F)F)cc(C(F)(F)F)c3)[C@@H]2C)CC(C)(C)CC1 gave a maximum inhibition of 83% (Cholesteryl ester transfer protein (Homo sapiens, UniProt P11597); enzyme activity; healthy male subjects, plasma; oral, 400 mg single dose; relative to: baseline).
CC(C)CC(NC(=O)C(NC(=O)NC(C(=O)O)C(C)C)C1CCNC(=N)N1)C(=O)NCCCNC(C(=O)O)C(OC1OC(CN)C(O)C1O)C1OC(n2ccc(=O)[nH]c2=O)C(O)C1O (stereo not drawn) has a ΔS of -1.7 ± 2.2 cal/mol/K (Phospho-N-acetylmuramoyl-pentapeptide-transferase (mraY, Aquifex aeolicus, UniProt O66465, H325A); ITC; H325A mutant).
CC(/C=C/C(=O)NO)=C\[C@@H](C)C(=O)c1ccc(N(C)C)cc1 has a ΔG of -8.6 ± 0.3 kcal/mol (Histone deacetylase 8 (HDAC8, Homo sapiens, UniProt Q9BY41); ITC; Tris-HCl buffer; pH 7.5, 25 °C).
COc1ccc(S(=O)(=O)n2nc(OC(=O)c3cccc(-c4ccccc4)c3)cc2N)cc1: “protein mass shift” 180 Da (Genome polyprotein, NS2B-NS3 protease (dengue virus type 2, UniProt P29990); ESI-TOF MS; concentration not given; relative to: DMSO control).
The hydrolysis product of CC(C)C[C@H](NC(=O)CNC(=O)[C@H](CC(C)C)NC(=O)[C@@H]1CCCN1C(=O)CNC(=O)[C@@H](N)Cc1ccccc1)C(=O)N[C@@H](CCCNC(=N)N)C(=O)N[C@@H](CO)C(=O)N[C@@H](CCCCN)C(=O)O is reported as 96% (Matrix metalloproteinase-9 (MMP9, Homo sapiens, UniProt P14780); substrate, HPLC; 500 µM, 72 h, pH 7.5, 37 °C).
With Nc1ncnc2c1ncn2[C@@H]1O[C@H](CO)[C@@H](O[C@H]2O[C@H](CO)[C@@H](OP(=O)(O)O)[C@H](OP(=O)(O)O)[C@H]2O)[C@H]1O the ΔpEC50 was 0.21 ± 0.11 (Inositol 1,4,5-trisphosphate-gated calcium channel ITPR1 (Itpr1, Rattus norvegicus, UniProt P29994, del318-332/R568Q); Ca2+ release; DT40, permeabilized; unit not given; relative to: R568Q over wild type).
Nc1ncnc2c1ncn2[C@@H]1O[C@@H]2COP(=O)(O)O[C@H]3[C@@H](O)[C@H](n4cnc5cncnc54)O[C@@H]3COP(=O)(O)O[C@H]2[C@H]1O has a ΔΔG binding of 2.1 kcal/mol (ydaO riboswitch wild type (Bacillus subtilis); competition gel-shift; concentration not given; relative to: c-di-AMP).
For CC1=CCCN(c2ncc(C(F)F)cn2)C1, binding read “active” (Dual specificity protein phosphatase 3 (DUSP3, Homo sapiens, UniProt P51452); ligand-observed 19F NMR; concentration not given, with: DUSP3 4 or 8 µM).
For CNc1ccccc1C(=O)O[C@H]1C[C@H](n2cnc3c(N)ncnc32)O[C@@H]1COP(=O)(O)OP(=O)(O)O, “ΔS of ligand binding” read -9.7 ± 1.4 cal/(mol·K) (Unconventional myosin-Va (Gallus gallus, UniProt Q02440, D297C/G292C/I296C/S293C/V295G); van't Hoff analysis; concentration not given, with: 2 mM Mg2+).
With NCCCC[C@H](NC(=O)[C@H](C/C=C/C[C@H](NC(=O)[C@@H]1CCCN1)C(=O)N[C@@H](CCCCN)C(=O)NCCCN)NC(=O)[C@@H]1CCCN1)C(=O)NCCCN the residence time was 30 s ((CAG)10 RNA; SPR).
With COc1ccc2c(c1)CC[C@@H]1[C@@H]2CC[C@]2(C)C(=O)CC[C@@H]12 the inhibition was 22.5% (Aldo-keto reductase family 1 member C1 (AKR1C1, Homo sapiens, UniProt Q04828); enzyme activity, inhibitor, absorbance; 100 µM, pH 9).
Under enzyme activity, Cn1nc(C(=O)NCc2ccc(C(=O)O)cc2)cc1-c1ccc2[nH]c(C(=O)O)cc2c1 is recorded as “inactive” (Collagenase 3 (MMP13, Homo sapiens, UniProt P45452); inhibitor, FRET; concentration not given, catalytic domain).
[Ru+2].[Ru+2].c1cnc2c(c1)c1nc(-c3ccc(OCCOCCOCCOCCOc4ccc(-c5nc6c7cccnc7c7ncccc7c6[nH]5)cc4)cc3)[nH]c1c1cccnc12.c1cnc2c(ccc3nccnc32)n1.c1cnc2c(ccc3nccnc32)n1.c1cnc2c(ccc3nccnc32)n1.c1cnc2c(ccc3nccnc32)n1 has a Kd of 940 nM (T2, DNA hairpin, hairpin, TTTT loop; BLI; pH 7.04, K+ 100 mM).
O=C(c1cc2c(s1)CCCCC2)N1CCC(n2c(=O)[nH]c3ccccc32)CC1 has a single-channel conductance of ~35 pS (Short transient receptor potential channel 6 (Trpc6, Mus musculus, UniProt Q61143); ion current, agonist, outside-out patch clamp; HEK293; 1 µM, holding -60 mV).
CC(C)C[C@H](NC(=O)[C@H](CC(C)C)NC(=O)[C@H](CCCNC(=N)N)NC(=O)[C@@H](N)CS)C(=O)O gave a remaining activity of 85.7% (PPO3; enzyme activity, inhibitor; 12.5 µM).
Under “bound ligand fraction”, CCN(CC)C(=O)c1ccc(O)c(OC)c1 is recorded as 0.49 mol % (Heat shock protein HSP 90-alpha, N-terminal domain (HSP90AA1, Homo sapiens, UniProt P07900); binding, ligand-observed NMR titration; ligand to protein ratio 125).
With O=C1CSc2ccccc2N1CCC(=O)N(c1ccc(F)cc1)c1ccc(F)cc1 the EC200 was > 30 µM (Proteasome subunit alpha type-2/Proteasome subunit alpha type-6 20S proteasome; proteolysis, activator, fluorogenic peptide; purified 20S proteasome; with: Suc-LLVY-AMC, Z-LLE-AMC, Boc-LRR-AMC).
With CC(C)C[C@H](NC(=O)[C@H](CC(N)=O)NC(=O)[C@H](CCCNC(=N)N)NC(=O)[C@@H](N)CS)C(=O)O the remaining activity was 71.9% (PPO3; enzyme activity, inhibitor; 25 µM).
O=Cc1ccc(-n2ccnc2)c(Cl)c1 has a stabilization factor of 1.3 fold (14-3-3 protein gamma, with Pin1 peptide (YWHAG, Homo sapiens, UniProt P61981); fluorescence anisotropy; 100 µM; relative to: DMSO).
With CC[C@H](C)[C@H](NC(=O)[C@H](CCCCN)NC(=O)[C@H](CCCCN)NC(=O)[C@@H](NC(=O)[C@H](CCC(=O)O)NC(=O)[C@H](CCC(=O)O)NC(=O)[C@H](CCC(=O)O)NC(=O)[C@H](CO)NC(=O)[C@H](CC(C)C)NC(=O)[C@H](CC(=O)O)NC(=O)[C@H](CC(C)C)NC(=O)CNC(=O)[C@H](CCCNC(=N)N)NC(=O)[C@H](CC(C)C)NC(=O)[C@H](CO)NC(=O)CNC(=O)CNC(=O)CNC(=O)CCCC[C@@H]1SC[C@@H]2NC(=O)N[C@@H]21)C(C)C)C(=O)N[C@@H](CC(C)C)C(=O)N[C@@H](CC(=O)O)C(=O)N[C@@H](CCC(=O)O)C(=O)N[C@H](C(=O)N[C@H](C(=O)N[C@@H](CCCCN)C(=O)N[C@@H](CC(=O)O)C(=O)N1CCC[C@H]1C(=O)N[C@@H](CO)C(=O)N[C@@H](C)C(=O)O)C(C)C)[C@@H](C)CC the Kd ratio was 1.6 (Fab B11 antibody (human); binding, biolayer interferometry; relative to: alanine mutant over wild type).
With OC(Cc1cc(-c2ccc(C(O)C(F)(F)F)s2)sc1-c1ccc(-c2sc(-c3ccc(C(O)C(F)(F)F)s3)cc2CC(O)C(F)(F)F)s1)C(F)(F)F (stereo not drawn) the Kd ratio was 15 (Microtubule-associated protein tau, 0N4R isoform, aggregated (MAPT, Homo sapiens, UniProt P10636); binding, fluorescence; 50% sucrose tau fraction; relative to: 50% over 20% fraction).
The remaining activity of N=C(N)NCCC[C@H](NC(=O)[C@@H](N)CS)C(=O)N[C@@H](CC(N)=O)C(=O)N[C@@H](CC(N)=O)C(=O)O is reported as 85.3% (PPO3; enzyme activity, inhibitor; 12.5 µM).
With Cc1ncsc1-c1ccc([C@@H]2CCCCCCNC(=O)C[C@@H]3N=C(c4ccc(cc4)OCCCCCC(=O)N[C@@H](C(C)(C)C)C(=O)N4C[C@H](O)C[C@H]4C(=O)N2)c2c(sc(C)c2C)-n2c(C)nnc23)cc1 the degradation was 86% (Bromodomain-containing protein 4, short isoform (BRD4, Homo sapiens, UniProt O60885); degrader, immunoblotting; PC-3; 100 nM, 2 h, short isoform).
For CCOC(=O)[C@H](CCCNC(N)=O)NC(=O)[C@H](Cc1c[nH]c2ccccc12)NC(=O)[C@@H]1CCCCN1C(=O)[C@H](Cc1ccccc1)N(C)C(=O)CCl, the kinact was 0.00133 s⁻¹ (Peptidyl-prolyl cis-trans isomerase NIMA-interacting 1 (PIN1, Homo sapiens, UniProt Q13526); ligand displacement, FP).
COc1ccc(-c2cc(C(F)(F)F)nc(S(=O)(=O)CCCC(=O)Nc3ccc(F)cc3F)n2)cc1OC has an efficacy increase of 84% (Glucagon-like peptide 1 receptor (Rattus norvegicus, UniProt P32301); cAMP accumulation, positive allosteric modulator; INS-1 832/13; 25 µM, with: GLP-1(9-36)).
